{"data": "Experimental data gathered from unrelated publications", "cell line": "MV4-11", "note": "Lines come from different studies, so protocols differ."}
{"Compound": "Cc1cc(CN2CCN(c3c(Br)cnc4[nH]c(-c5ccc(N6CCN(C)CC6)cc5)nc34)CC2)no1", "assay": "cell growth or viability, MTS", "conditions": "72 h", "endpoint": "IC50", "result": "62 nM"}
{"Compound": "CCCCCCCCC=CCCCCCCCC(=O)OC(COC(=O)Cc1c(C)n(C(=O)c2ccc(Cl)cc2)c2ccc(OC)cc12)COP(=O)([O-])OCC[N+](C)(C)C (centres unmarked)", "assay": "cell growth or viability, MTT", "conditions": "72 h", "endpoint": "IC50", "result": "52400 nM"}
{"Compound": "CCN(CC)CCCC(C)NCc1nn2c(-c3ccccc3)nnc2s1 (centres unmarked)", "assay": "cell growth or viability, ATP luminescence", "conditions": "72 h", "endpoint": "IC50", "result": "19200 nM"}
{"Compound": "FC(F)(F)c1n[nH]cc1-c1nc2ccc3[nH]ncc3c2c2c1CCC2", "assay": "cell growth or viability, resazurin", "conditions": "72 h", "endpoint": "IC50", "result": "63 nM"}
{"Compound": "N#Cc1c(-c2ccc(Cl)cc2)cc(-c2cccs2)nc1SCc1ccc(C(=O)O)cc1", "assay": "cell growth or viability, ATP luminescence", "conditions": "72 h", "endpoint": "IC50", "result": "28400 nM"}
{"Compound": "COc1ccc(C[C@H]2COC(=O)[C@@H]2Cc2ccc(OCCCCCCCC(=O)NO)c(OC)c2)cc1OC", "assay": "cell growth or viability, CCK-8", "conditions": "48 h", "endpoint": "IC50", "result": "1180 nM"}
{"Compound": "c1cc2cc(c1)Cn1cc(nn1)Cn1nc(-c3ccc(N4CCNCC4)nc3)c3cnc(nc31)NCc1cn(nn1)C2", "assay": "cell growth or viability, resazurin", "conditions": "5 days", "endpoint": "EC50", "result": "16600 nM"}
{"Compound": "Cc1cc(-c2c[nH]nc2C(F)(F)F)nc2ccc3[nH]ncc3c12", "assay": "cell growth or viability, resazurin", "conditions": "72 h", "endpoint": "IC50", "result": "797 nM"}
{"Compound": "COc1ccc(C[C@H]2COC(=O)[C@@H]2Cc2ccc(OCC(=O)Nc3ccc(C(=O)NO)cc3)c(OC)c2)cc1OC", "assay": "cell growth or viability, CCK-8", "conditions": "48 h", "endpoint": "IC50", "result": "> 5000 nM"}
{"Compound": "O=c1c(-c2cnn(-c3ccccc3)c2)c(C(F)(F)F)oc2c(O)c(O)ccc12", "assay": "immunoblot", "conditions": "concentration not given", "endpoint": "p27 protein level", "result": "no effect"}
{"Compound": "CC1CCc2c(c(-c3c[nH]nc3C(F)(F)F)nc3ccc4[nH]ncc4c23)C1 (centres unmarked)", "assay": "cell growth or viability, resazurin", "conditions": "72 h", "endpoint": "IC50", "result": "13.7 nM"}
{"Compound": "Cn1cc(-c2cc(N3CCCCS3(=O)=O)ccc2N[C@H]2CC[C@H](C)CC2)c2cc[nH]c2c1=O (stereo in doubt)", "assay": "cell growth or viability, CCK-8", "conditions": "72 h", "endpoint": "GI50", "result": "1.3 nM"}
{"Compound": "c1ccc(-n2cc(-c3nc4ccc5[nH]ncc5c4c4c3CCCC4)cn2)cc1", "assay": "cell growth or viability, resazurin", "conditions": "72 h", "endpoint": "IC50", "result": "1080 nM"}
{"Compound": "C/C(=N\\NC(=O)c1cccc(S(=O)(=O)N2CCOCC2)c1)c1cc(Cl)ccc1O", "assay": "cell growth or viability, resazurin", "conditions": "96 h", "endpoint": "EC50", "result": "422 nM"}
{"note": "Repeated from above:"}
{"Compound": "FC(F)(F)c1n[nH]cc1-c1nc2ccc3[nH]ncc3c2c2c1CCC2", "assay": "cell growth or viability, resazurin", "conditions": "72 h", "endpoint": "IC50", "result": "63 nM"}
